Experimental data pooled from the literature.
A part holds a random share of what one study measured. Substitutions count along the parent as printed.

Sample 1 — method: RNA Bind-n-Seq; molecule type: RNA; medium: in vitro; tested at: 1 µM; notes: whole 134-nt RNA, ends assumed; added: 150 mM KCl; reference: input library; direction: higher = stronger binding
Target: Ras GTPase-activating protein-binding protein 1, C-terminal RGG region (G3BP1, Homo sapiens, UniProt Q13283)
Sequence of UniProt Q13283 (whole entry, looked up): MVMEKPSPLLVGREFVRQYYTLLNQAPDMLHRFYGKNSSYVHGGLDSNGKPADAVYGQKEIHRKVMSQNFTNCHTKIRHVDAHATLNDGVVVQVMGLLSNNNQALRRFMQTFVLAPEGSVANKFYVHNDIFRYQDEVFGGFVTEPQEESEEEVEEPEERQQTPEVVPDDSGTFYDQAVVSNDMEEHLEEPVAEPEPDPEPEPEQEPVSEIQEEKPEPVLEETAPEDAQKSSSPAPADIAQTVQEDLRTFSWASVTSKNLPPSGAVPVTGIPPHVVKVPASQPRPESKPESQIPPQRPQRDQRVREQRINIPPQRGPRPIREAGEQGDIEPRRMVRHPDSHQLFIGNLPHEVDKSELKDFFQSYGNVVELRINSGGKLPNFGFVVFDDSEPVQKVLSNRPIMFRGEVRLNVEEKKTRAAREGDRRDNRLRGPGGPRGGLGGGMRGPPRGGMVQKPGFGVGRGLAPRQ
All sequences stand within: GGGAGUUCUACAGUCCGACGAUC … UGGAAUUCUCGGGUGUCAAGG
Sequence | log2 enrichment
AAGUCCUGUGCUACACAUCGUAUGUACCGAAUCGGGCCCCGGCCCCGGCCCCGGGGAAAGUAUUAUGUUACGCCGUUCGGAUCUGCACUU | -2.24
GUCCUGUGCUACACAUCGUAUGUACCGAAUCAAACCCAAAUUUUUAAACCCCCCCAAAAAAGUAUUAUGUUACGCCGUUCGGAUCUGCAC | -0.704
CCUCAAGUCCUGUGCUACACAUCGUAUGUACCGAAUCGGAAAGGUGGAAAGGAAAGUAUUAUGUUACGCCGUUCGGAUCUGCACUUCCAG | -0.762
AGUCCUGUGCUACACAUCGUAUGUACCGAAUCGGGGAGGGGUGGGGUUUUUUUGGGGAAAGUAUUAUGUUACGCCGUUCGGAUCUGCACU | 1.78
UCUCAGCACCCUCGUGAAACUGGACAAGAAGCCAGUGGAGACCAACGGUCCUGAUGCCAAUCACGAGUACAGUACAAGCAGCCAGCAUAU | -1.02

Sample 2 — method: RNA Bind-n-Seq; molecule type: RNA; medium: in vitro; tested at: 365 nM; reference: no-protein control; direction: higher = stronger binding
Target: RNA binding protein fox-1 homolog 2, RRM domain, GST-SBP tag (RBFOX2, Homo sapiens, UniProt O43251-10, residues 100-194)
Notes: natural RNA segment, single round, ends assumed
All sequences stand within: GGGAGUUCUACAGUCCGACGAUC … UGGAAUUCUCGGGUGCCAA
Residues (chain): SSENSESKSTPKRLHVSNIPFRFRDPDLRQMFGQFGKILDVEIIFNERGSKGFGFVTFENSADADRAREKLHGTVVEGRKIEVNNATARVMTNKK
Sequence | RBNS enrichment (R)
UCCCAGUAGGCUUUUACCAUUAGCAUAAUUUUGUGUUGUACAAUUAAGUUACAAUUACAUCUCUAAUUUUGGAUAAUAUUCAUUGGUUAACAAUAAAGUGACAAAAGCUC | 0.602
AAGUUCUCUUUCCCACUGUUUAAUUUGACAAGAGAAGAAUUUGAAGGAUAUGAACAUUUUCAAGAACUCUGCUGAGGUCACUUAGAGCGCCAUCACAACUUAUUUGUGUG | 0.252
UCAGCACCAGGCCUGUAUAACGUGGUUCUCACGUUACCCUGGCAGCAUACAGGAUGGGGAGUCUGGUGUAUUCAGUGUUCACAGUCAGCAGACAUGGUGACCUGGUGGGA | 0.327
AUUGGAAAUUCAGAAGUUAAUGUUUUUUUGUAAGCACAAAAGAAGUAUUAUAGAAAUUUAUCCUAGCAAGACUUUACAAGAUAGGAUCAAAUUCUAAUGGAAUUGAGCCG | 0.519
UACCUAAUAAGAUUGAGUGAAAAAUUUGAGUCAAAUAUCUAGGGCAUUCACAGAGUAGCUGUGAGUUCUUGGUAAUGUGAAAAAGGCCUUGUUUUUCAGAAAUUCCUGGG | 0.433

Sample 3 — target: CCND1, cyclin fold, Cln2 fusion (human); method: yeast growth competition, sequencing; medium: yeast; notes: strong parent motif; reference: not given; direction: higher = stronger binding
Starting sequence: RBL2 docking peptide (human); STTRRRLFVENDS; partner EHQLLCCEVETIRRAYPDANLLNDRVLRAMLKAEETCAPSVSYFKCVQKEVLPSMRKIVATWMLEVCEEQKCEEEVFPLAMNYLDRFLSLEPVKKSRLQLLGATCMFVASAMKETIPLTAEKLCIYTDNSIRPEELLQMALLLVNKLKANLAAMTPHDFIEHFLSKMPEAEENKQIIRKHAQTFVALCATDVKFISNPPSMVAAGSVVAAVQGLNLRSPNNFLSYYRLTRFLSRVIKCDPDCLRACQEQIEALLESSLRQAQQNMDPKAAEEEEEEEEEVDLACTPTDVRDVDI
Variant | normalised enrichment score
STTRRRLFVANDS [E10A] | -0.00806
STTRRRLFVEVDS [N11V] | 0.626
STTYRRLFVENDS [R4Y] | 1.18
STTRKRLLVENDS [R5K F8L] | -0.084
STQRRRLFVENDS [T3Q] | -0.376
STTRHRLFVENDS [R5H] | 0.471

Mixed results
Substance | target | assay | test system | conditions | how to read | quantity | result
PhoQ, residues 284 288 289 292 302 303 TAVSDG | PhoP, residues 12 14 15 18 19 LYFRQ (Escherichia coli, UniProt P23836) | Sort-seq, measured: YFP reporter | E. coli | PhoQ-PhoP variant library, added: 10 µM Mg2+ | reference: high Mg2+ state, higher = stronger signaling | fold induction | 3.71

Excerpt of the above (sample 2):
Sequence | RBNS enrichment (R)
UACCUAAUAAGAUUGAGUGAAAAAUUUGAGUCAAAUAUCUAGGGCAUUCACAGAGUAGCUGUGAGUUCUUGGUAAUGUGAAAAAGGCCUUGUUUUUCAGAAAUUCCUGGG | 0.433
